Results gathered from unrelated publications.
Each numbered part is a random draw from the data of one study; scales do not carry over between parts. Numbers after ± are the reported error.

Study 1
Organism: VSVΔG with SARS-CoV-2 spike
Effect on: pseudovirus infection
Strain: Wuhan variant
Concentration: 10 µM
SMILES | inhibition
COc1cccc(C(=O)N/N=C(\C)c2ccccc2O)c1 | 42%
CNC(=O)C(C#N)(Cc1cc(Cl)cc2c1OCOC2)Cc1cc(Cl)cc2c1OCOC2 | 88%
CCCCN1COc2c(cc(Cl)c3cccnc23)C1 | 59%
COc1ccccc1C(=O)c1sc(Nc2ccc(C(C)C)cc2)nc1N | 35%
Oc1ccc(CN2CCN(c3cccc(C(F)(F)F)c3)CC2)c2cccnc12 | 37%
Cc1nn(C)c(C)c1-c1ccnc(NC2CCN(Cc3cccnc3)CC2)n1 | 44%
Cc1ccccc1NC(=O)N1c2ccccc2CC1c1noc(C2CCOCC2)n1 (stereo not shown) | 39%
N#CC(C#N)=C/C=C(/Sc1ncc(C(F)(F)F)cc1Cl)c1ccc(Cl)cc1 | 47%

Mixed results
rep nsp12 RdRp: Replicase polyprotein 1ab, nsp12 RdRp (rep, Severe acute respiratory syndrome coronavirus 2, UniProt P0DTD1)
rep papain-like protease: Replicase polyprotein 1ab, papain-like protease (rep, Severe acute respiratory syndrome coronavirus 2, UniProt P0DTD1)
rep nsp14: Replicase polyprotein 1ab, nsp14 (rep, Severe acute respiratory syndrome coronavirus 2, UniProt P0DTD1)
SMILES | target or system | test | test system | conditions | scale | quantity | result
c1ccc2c(Oc3nc(Nc4ccc(N5CCOCC5)cc4)c4ncn(C5CCCCC5)c4n3)cccc2c1 | rep nsp12 RdRp | binding, biolayer interferometry |  | concentration not given |  | BLI response | 0.01 nm
O=C(O)c1cc(Oc2ccc([N+](=O)[O-])cc2)cc(Oc2ccc([N+](=O)[O-])cc2)c1 | rep papain-like protease |  |  | concentration not given, C111S mutant | reference: positive control | activity | 14.4%
Cc1ccc(NS(=O)(=O)c2cccc(C(=O)NC3CCN(c4ncnc5[nH]cnc45)CC3)c2)cc1 | rep nsp14 |  |  | 0.04883 µM |  | inhibition | 3.94%
Clc1ccc(Cn2c(CN3CCCC3)nc3ccccc32)cc1 | rep papain-like protease |  |  | concentration not given, C111S mutant | reference: positive control | activity | 33.1%
N#C[C@@]1(n2ccc(N)nc2=O)O[C@H](CO)[C@@H](O)[C@H]1O | SARS-CoV-2 | viral replication | Vero, Gamma |  |  | EC50 | 700 ± 4 nM
Cn1c[n+]([C@@H]2O[C@H](COP(=O)(O)OP(=O)([O-])OP(=O)(O)OC[C@H]3O[C@@H](n4cnc5c(=O)[nH]c(N)nc54)[C@H](O)[C@@H]3O)[C@@H](O)[C@H]2O)c2nc(N)[nH]c(=O)c21 | rep nsp14 | thermal shift |  | 250 µM |  | ΔTm | 1.1 °C
CCC(CC)COC(=O)[C@H](C)N[P@](=O)(OC[C@H]1O[C@@](C#N)(c2ccc3c(N)ncnn23)[C@H](O)[C@@H]1O)Oc1ccccc1 | SARS-CoV-2 | viral replication | Calu-3, Beta |  |  | EC90 | 100 ± 60 nM
CC1(C)CC[C@]2(C(=O)O)CC[C@]3(C)C(=CC[C@@H]4[C@@]5(C)CCC(=O)C(C)(C)[C@@H]5CC[C@]43C)[C@@H]2C1 | rep nsp12 RdRp | binding, biolayer interferometry |  | 50 µM |  | BLI response | 0.09 nm
